Assay results from different studies.
Protocols differ between the studies behind these lines. Numbers after ± are the reported error.

| SMILES | cell line | test | setting | how to read | quantity | value |
| --- | --- | --- | --- | --- | --- | --- |
| C=C(CC)C(=O)c1ccc(OCC(=O)NCCNC(=O)COc2ccc(C(=O)C(=C)CC)c(Cl)c2Cl)c(Cl)c1Cl | SK-OV-3/DDP cisplatin-resistant | cell growth, CCK-8 | 1.0 µM, together with: cisplatin |  | sensitisation to cisplatin | ~5 fold |
| O=C(N1CCCC1)n1cc(-c2ccc(-c3ccccc3)cc2)nn1 | mouse T-cells | N-terminal labeled proteins, N-terminal enrichment proteomics, refers to: LARP1 | 1 nM, 6 h | relative to: DMSO | SILAC ratio | 1.21 ± 0.26 |
| O=Cc1c(O)ccc2ccccc12 | HUVEC | RNA sequencing, refers to: FADS2 | 75 µM, 24 h | relative to: DMSO | log2 fold change | -3.03 |
| COc1cc(CN2CCN(c3ccccc3Cl)CC2)c2cc3[n+](cc2c1O)CCc1cc2c(cc1-3)OCO2 | HeLa and MDCK | SRB | 48 h | relative to: CC50 MDCK over IC50 HeLa | therapeutic index | 27.3 |
| CC(C)Cc1ccc(C(C)C(=O)N/N=C/c2ccc(OCC(=O)N/N=C/c3cccc(O)c3)cc2)cc1 (centres unmarked) | U87 MG | MTT | 10 µM, 48 h |  | viability | 120% |
| CCN1CCC2(CC1)C/C(=N\NC(=O)Nc1ccccc1)c1ccccc1O2 | A549 | annexin V-FITC/PI | concentration not given, 24 h |  | necrotic cells | 2.93% |
| COc1cc2c(OC3OCC(OC)C(OC)C3OC(=O)c3ccc(Br)cc3)c3c(c(-c4ccc5c(c4)OCO5)c2cc1OC)C(=O)OC3 (centres unmarked) | CAL-27 | western blot, refers to: pro- and mature cathepsin D | concentration not given, 72 h |  | protein level | decreased |
| CC(=O)OC[C@H]1O[C@@H](Sc2sc(C(=O)c3ccc(Br)cc3)c(N)c2-c2nc3ccccc3s2)[C@H](OC(C)=O)[C@@H](OC(C)=O)[C@H]1OC(C)=O | EKVX | SRB | 10 µM, 48 h | relative to: untreated | growth | 80.5% |
| COc1cc(CNC(=O)C[C@H](C)CCC=C(C)C)ccc1OCc1cn(-c2cccc([N+](=O)[O-])c2)nn1 | T47D breast cancer cells | SRB | 10 µM, 48 h |  | growth percent | 58.9% |
| Cc1nc(C)c(C=[N+]([O-])C(C)(C)C)nc1C | rat primary cerebellar granule neurons |  | 30 µM, together with: MPP+ |  | ATP content increase | 27.5% |
| N[C@H](CSC(F)(F)[18F])C(=O)O | C6 |  | concentration not given, 120 min |  | protein incorporation | ~13% |
| C[C@H](NC(=O)CNC(=O)[C@H](CCC(=O)O)NC(=O)[C@H](CCC(=O)O)NC(=O)[C@H](CC(=O)O)NC(=O)[C@@H]1CCCN1C(=O)[C@H](Cc1ccccc1)NC(=O)[C@H](CS)NC(=O)[C@H](Cc1ccc(O)cc1)NC(=O)CCCNC(=O)CNC(=O)CNC(=O)[C@@H](C)NC(=O)CN)C(=O)N[C@@H](CS)C(=O)N[C@@H](Cc1ccc(O)cc1)C(N)=O [technetium-99m labelled] | SK-BR-3 |  | 24 h, 37 °C |  | internalization | 18.4 ± 0.27% |
| COc1ccc2c(c1)/C(=N\Nc1nnc3n1N=C(c1ccccc1)CS3)C(=O)N2 | OVCAR-5 | cell growth or viability, SRB | 10 µM |  | inhibition | 18% |
| CCOC(=O)c1csc2nc(-c3cccc(NC(=O)c4cc5cc(NC(=O)c6ccco6)ccc5n4Cc4ccc(C(F)(F)F)cc4)c3)cn12 | RAW264.7 |  | 10 µM, together with: LPS | relative to: control | intracellular MDA level | increased |
| CN1CCc2cc(Nc3ncc(C(F)(F)F)c(NCc4cc[nH]n4)n3)ccc2C1 | GL261 | annexin V/PI | concentration not given |  | apoptotic cells | 59.4% |
| N[C@@H](CCC(=O)N[C@@H](CS[Se]Cc1ccc(-c2cc(C(F)(F)F)nn2-c2ccc(S(N)(=O)=O)cc2)cc1)C(=O)NCC(=O)O)C(=O)O | UACC-903 and UACC-903 |  | 15.5 µM, 24 h |  | increase in apoptosis | ~200% |
| CC(C)C(=O)Cc1c(OCC(O)C(C)(C)O)ccc2ccc(=O)oc12 (centres unmarked) | COLO 320 (ABCB1-overexpressing, multidrug-resistant) | cell growth | 200 µM starting, CI at ED50, together with: doxorubicin, ratio 46.4:1 |  | combination index | 0.76 |
| [Cl-].[Cl-].[Ru+2].c1ccc2nc(-c3ccc4ccccc4n3)ccc2c1.c1cnc2c(c1)ccc1cccnc12.c1cnc2c(c1)ccc1cccnc12 | A549 | oxygen consumption rate, Seahorse extracellular flux | 1 h, dark |  | lowest concentration inhibiting OCR | > 25 µM |
| Cc1nn(-c2ccc(S(=O)(=O)N[C@@H](CO)CC(C)C)cc2)c2nn3nnnc3nc12 | HT-29 | DNA damage, alkaline comet | 2 µM, 24 h |  | tail DNA | 29.5 ± 2.44% |
| CC(=O)N[C@H](C(=O)N[C@H](C(=O)N[C@@H](CCCNC(=N)N)C(=O)N1Cc2ccccc2C[C@H]1C(=O)N[C@@H](Cc1ccccc1)C(N)=O)C1CCCCC1)C(C)C | MBP-specific BC-3 T cells | Bio-Plex multiplex, refers to: IL-10 | 200 µg/mL, 24 h, together with: MBP87-99 antigen |  | cytokine level | 6.5 ± 2.4 pg/mL |
| O=C(CCc1ccc(O)cc1)c1c(O)cc(O)cc1OC1OC(CO)C(O)C(O)C1O (centres unmarked) | human cells | luciferase reporter | concentration not given, together with: TNF-α |  | NF-κB inhibition | inactive |
| COc1cc(CNC(=O)C[C@H](C)CCC=C(C)C)ccc1OCc1cn(-c2ccc(Cl)cc2Cl)nn1 | MDA-MB-435 melanoma cells | SRB | 10 µM, 48 h |  | growth percent | 98.2% |
| COc1cccc(/C=N/NC(=O)COc2ccc(/C=N/NC(=O)C(C)c3ccc(CC(C)C)cc3)cc2)c1O (centres unmarked) | U87 MG | MTT | 80 µM, 48 h |  | viability | 40.4% |
| CC(=O)OC[C@H]1O[C@@H](Sc2sc(C(=O)c3ccc(C)cc3)c(N)c2-c2nc3ccccc3s2)[C@H](OC(C)=O)[C@@H](OC(C)=O)[C@H]1OC(C)=O | ACHN | SRB | 10 µM, 48 h | relative to: untreated | growth | 87% |
| COc1cc(CNC(=O)C[C@H](C)CCC=C(C)C)ccc1OCc1cn(-c2ccc(F)cc2)nn1 | LOX IMVI | SRB | 10 µM, 48 h |  | growth | 81.4% |

| SMILES | cell line | test | setting | how to read | quantity | value |
| --- | --- | --- | --- | --- | --- | --- |
| CC(C)(C)C(=O)Nc1ccc2[nH]c(CN3CCC(N(CCCN4CCOCC4)CC4OC(n5cnc6c(N)ncnc65)C(O)C4O)CC3)nc2c1 (centres unmarked) | H460 R231Q cells | Western blot | 5 µM | relative to: untreated | RAF1, p-MEK, p-ERK levels | decreased |
| COc1ccc(NC(=O)COc2ccc(/C=C/C(C)=N/O)cc2OC)cc1 | SH-SY5Y | flow cytometry | 40 µM, together with: amyloid beta 10 µM |  | IL-1β expressing cells | 4.88% |
| CC(C)Cc1ccc(C(C)C(=O)N/N=C/c2ccc(OCC(=O)N/N=C/c3c(O)ccc4ccccc34)cc2)cc1 (centres unmarked) | U87 MG | MTT | 40 µM, 48 h |  | viability | 100% |
| N#Cc1cccc(/C=C/C(=O)c2ccc(O)cc2)c1 | U-87 MG and D54 | western blot, refers to: E2F1 and RAD51 | concentration not given, 24 h |  | protein level | decreased |
| CC(C)=CCc1c(OCC2OC2(C)C)ccc2ccc(=O)oc12 (centres unmarked) | COLO 320 (ABCB1-overexpressing, multidrug-resistant) | cell growth | 150 µM starting, CI at ED50, together with: doxorubicin, ratio 69.68:1 |  | combination index | 0.83 |
| COc1cc(CNC(=O)C[C@H](C)CCC=C(C)C)ccc1OCc1cn(-c2cccc(Cl)c2)nn1 | T47D breast cancer cells | SRB | 10 µM, 48 h |  | growth percent | 58.6% |
| CC(=C(c1ccc(O)cc1)c1ccc(Cl)cc1)c1ccc(Cl)cc1 | LOX IMVI | cell growth or viability, SRB |  |  | GI50 | 420 nM |
| COc1cc(CNC(=O)C[C@H](C)CCC=C(C)C)ccc1OCc1cn(-c2ccc([N+](=O)[O-])cc2)nn1 | T47D breast cancer cells | SRB | 10 µM, 48 h |  | growth percent | 46.1% |
| O=C1OCC2=C1C(c1cccc(Br)c1)C1=C(N2)C(=O)c2ccccc2C1=O (centres unmarked) | SK-LU-1 cells | PI flow cytometry | 0.16 µM, 24 h |  | cells in G0/G1 phase | 0% |
| CC1=CC(C)(C)N=C(Nc2nc(C)c3cc(C)cc(C)c3n2)N1 | PBMC | ELISA | 10 µM, 48 h | relative to: untreated | IFN-γ increase | 160% |
| COc1cc(CNC(=O)C[C@H](C)CCC=C(C)C)ccc1OCc1cn(-c2ccccc2Cl)nn1 | T47D breast cancer cells | SRB | 10 µM, 48 h |  | growth percent | 9.14% |
| Cc1cccc(O[C@H]2CCC[C@@H](C(C)CNCc3ccncc3)C2)c1 (relative stereo) | MC65 Tet-On cells |  | 1 µM, 24 h |  | increase in NADH | ≤ 25% |
| [Cl-].[Cl-].[Ru+2].c1ccc(-c2ccccn2)nc1.c1ccc(-c2ccccn2)nc1.c1cnc2c(c1)ccc1cccnc12 | A549 | LC-MS/MS | 3 µM |  | time to plateau uptake | 12 h |
| Cc1ccc(Nc2ncc3c(n2)N(C)C(=O)N(c2cc(NC(=O)c4ccc(CN5CCC(N(C)C)C5)c(C(F)(F)F)c4)ccc2C)C3)cn1 (centres unmarked) | Huh-7 | cell growth or viability, ATP luminescence | 72 h |  | GI50 | 34 nM |
| COc1cc(CNC(=O)C[C@H](C)CCC=C(C)C)ccc1OCc1cn(-c2ccccc2F)nn1 | Hs-578T breast cancer cells | SRB | 10 µM, 48 h |  | growth percent | 39.5% |
| CC/C=C\C/C=C\C/C=C\C/C=C\C/C=C\C/C=C\CCC(=O)Nc1ccn(C2OC(CO)C(O)C2(F)F)c(=O)n1 (centres unmarked) | OVCAR-5 | NCI60 screen |  |  | TGI | 22500 nM |
| CN1C(=O)N[C@H](Cc2c[nH]c3c(Cl)cccc23)C1=O | FADD-knockout Jurkat | necroptosis protection | 16 h, together with: TNFα 40 ng/mL |  | EC50 | 94 nM |
| COc1ccc(S(=O)(=O)N2CCc3ccccc3C2)cc1N1CCN(C(=O)c2ccc(F)cc2C(F)(F)F)CC1 | mouse midbrain dopamine neurons |  | 7.5 nM, 5 days, normalized to total cells |  | TH-positive neuron count | 387 ± 15 |
| COc1ccc([C@@H]2CC(=O)c3c(O)cc(O[C@@H]4O[C@H](CO[C@@H]5O[C@@H](C)[C@H](O)[C@@H](O)[C@H]5O)[C@@H](O)[C@H](O)[C@H]4O)cc3O2)cc1O | A549 | cell migration, scratch | 100 µg/mL, 48 h |  | gap closure | 6.76 ± 0.82% |
| CC(C)Cc1ccc(C(C)C(=O)N/N=C/c2ccc(OCC(=O)N/N=C/c3ccc([N+](=O)[O-])cc3)cc2)cc1 (centres unmarked) | U87 MG | MTT | 40 µM, 48 h |  | viability | 88% |
| Cc1cc(Nc2ccc(NC(=O)c3ccc(NC(=O)c4ccncc4)cc3)cc2)nc(N)n1 | KG-1 with methylated CMV-luciferase | luciferase reporter gene | 10 µM, 24 h | relative to: untreated | reporter reactivation | 1 ± 0.1 fold |
| CC(=O)O[C@@H]1CC[C@@]2(C)C(CC[C@]3(C)C2C(=O)C=C2C4[C@@H](C)[C@H](C)CC[C@]4(C)CC[C@]23C)[C@@]1(C)C(=O)OCc1cn(CC(=O)OC2CC(C)CCC2C(C)C)nn1 (some centres unmarked) | RAW264.7 | NO release, inhibitor, Griess | 10 µM, 24 h, LPS-stimulated |  | inhibition | 88.3% |
| COc1cc(CNC(=O)C[C@H](C)CCC=C(C)C)ccc1OCc1cn(-c2ccc(Br)cc2)nn1 | T47D breast cancer cells | SRB | 10 µM, 48 h |  | growth percent | 49.3% |
| Nc1nc2cc(CC[C@H]3C[C@@H](n4ccc5c(N)ncnc54)[C@H](O)[C@@H]3O)ccc2cc1Br | NCI-H1048 | inhibitor, immunoblot, refers to: SmD1/3 dimethylarginine | 0.03 and 0.3 µM, 72 h |  | protein level | decreased |
| CO[C@H]1N(OC)c2ccccc2[C@@]12CN=C(Nc1cc(C(F)(F)F)cc(C(F)(F)F)c1)S2 (relative stereo) | HCT-116 | PI flow cytometry | concentration not given, 24 h | relative to: untreated | sub-G1 cells | 15.1 fold |
